Measured values from different studies.

Cc1cccc(-c2[nH]c(CNc3ccccc3F)nc2-c2ccc3ncnn3c2)n1  viability (bone marrow CD138+ myeloma cells; XTT; 0.4 µM, phenol red-free RPMI): 96%
CC(=O)Nc1cccc(-n2c(=O)n(C3CC3)c(=O)c3c(Nc4ccc(I)cc4F)n(C)c(=O)c(C)c32)c1  viability (LoVo (KRAS G13D); resazurin; 6.25 nM, 72 h; reference: DMSO): 78.3%
COc1ccc(-n2nc(C(C)=O)s/c2=N\N=C(/C)c2ccc(NC(=O)c3ccccc3)cc2)cc1  viability (HepG2; 2.5 µM): 2.77%
CC(=O)O[C@H]1C(=O)[C@@]2(C)[C@H]([C@H](OC(=O)c3ccccc3)[C@]3(O)C[C@H](OC(=O)[C@H](O)[C@@H](NC(=O)c4ccccc4)c4ccccc4)C(C)=C1C3(C)C)[C@]1(OC(C)=O)CO[C@@H]1C[C@@H]2O  viability (CHP-212 parental; SRB; 1.524 nM): 95.2%
CC(NCCc1ccc(O)cc1)C(O)c1ccc(O)cc1 (centres unmarked)  viability (MCF-10A; CellTiter-Glo; concentration not given; reference: normalised, mean of replicates): 108%
O=C1C(O)=C([C@H]2CC[C@H](c3ccc(Cl)cc3)CC2)C(=O)c2ccccc21  EC50 (Toxoplasma gondii; bradyzoite growth; pH 8.2, alkaline-induced bradyzoites): 2070 nM
CC(=O)c1nn(-c2ccc(Cl)cc2)/c(=N/N=C(\C)c2ccc(NC(=O)c3ccc(Cl)cc3)cc2)s1  viability (MCF7; 5 µM): 49.3%
FC(F)(F)COCC(F)(F)F  viability (MCF-10A; CellTiter-Glo; concentration not given; reference: normalised, mean of replicates): 109%
Nc1cccc2c1C(=O)N(C1CCC(=O)NC1=O)C2=O (centres unmarked)  viability (MM1.S; XTT; 3 µM; reference: untreated): 12%
C[C@]12CC[C@@H]3c4ccc(O)cc4CC[C@H]3[C@@H]1CC[C@@H]2OC(=O)CCC1CCCC1  viability (MCF-10A; CellTiter-Glo; concentration not given; reference: normalised, mean of replicates): 102%
Nc1cccc2c1CN(C1CCC(=O)NC1=O)C2=O (centres unmarked)  viability (bone marrow CD138+ myeloma cells; XTT; 0.4 µM, mean of three patients): 94%
Cc1ccc(CNC(=O)Cn2cc(CSc3nc4ccccc4[nH]3)nn2)cc1  viability (MDA-MB-231; MTT; 250 ppm): 6.48%
C/C=C/C/C=C/CCC(=O)[C@H]1O[C@H]1C(N)=O  viability (MCF-10A; CellTiter-Glo; concentration not given, replicate C; reference: normalised luminescence): 95.1%
O=C1c2ccccc2C(=O)c2c(NCCc3ccc(O)cc3)ccc(NCCc3ccc(O)cc3)c21  EC50 (Toxoplasma gondii; bradyzoite growth; pH 8.2, alkaline-induced bradyzoites): 2880 nM

A few entries again:
FC(F)(F)COCC(F)(F)F  viability (MCF-10A; CellTiter-Glo; concentration not given; reference: normalised, mean of replicates): 109%
